# Measured values of several laboratories.
# A part holds a random share of what one study measured. Positions count from the first letter of the parent shown.
# Sequence of UniProt P23458 (whole entry, looked up): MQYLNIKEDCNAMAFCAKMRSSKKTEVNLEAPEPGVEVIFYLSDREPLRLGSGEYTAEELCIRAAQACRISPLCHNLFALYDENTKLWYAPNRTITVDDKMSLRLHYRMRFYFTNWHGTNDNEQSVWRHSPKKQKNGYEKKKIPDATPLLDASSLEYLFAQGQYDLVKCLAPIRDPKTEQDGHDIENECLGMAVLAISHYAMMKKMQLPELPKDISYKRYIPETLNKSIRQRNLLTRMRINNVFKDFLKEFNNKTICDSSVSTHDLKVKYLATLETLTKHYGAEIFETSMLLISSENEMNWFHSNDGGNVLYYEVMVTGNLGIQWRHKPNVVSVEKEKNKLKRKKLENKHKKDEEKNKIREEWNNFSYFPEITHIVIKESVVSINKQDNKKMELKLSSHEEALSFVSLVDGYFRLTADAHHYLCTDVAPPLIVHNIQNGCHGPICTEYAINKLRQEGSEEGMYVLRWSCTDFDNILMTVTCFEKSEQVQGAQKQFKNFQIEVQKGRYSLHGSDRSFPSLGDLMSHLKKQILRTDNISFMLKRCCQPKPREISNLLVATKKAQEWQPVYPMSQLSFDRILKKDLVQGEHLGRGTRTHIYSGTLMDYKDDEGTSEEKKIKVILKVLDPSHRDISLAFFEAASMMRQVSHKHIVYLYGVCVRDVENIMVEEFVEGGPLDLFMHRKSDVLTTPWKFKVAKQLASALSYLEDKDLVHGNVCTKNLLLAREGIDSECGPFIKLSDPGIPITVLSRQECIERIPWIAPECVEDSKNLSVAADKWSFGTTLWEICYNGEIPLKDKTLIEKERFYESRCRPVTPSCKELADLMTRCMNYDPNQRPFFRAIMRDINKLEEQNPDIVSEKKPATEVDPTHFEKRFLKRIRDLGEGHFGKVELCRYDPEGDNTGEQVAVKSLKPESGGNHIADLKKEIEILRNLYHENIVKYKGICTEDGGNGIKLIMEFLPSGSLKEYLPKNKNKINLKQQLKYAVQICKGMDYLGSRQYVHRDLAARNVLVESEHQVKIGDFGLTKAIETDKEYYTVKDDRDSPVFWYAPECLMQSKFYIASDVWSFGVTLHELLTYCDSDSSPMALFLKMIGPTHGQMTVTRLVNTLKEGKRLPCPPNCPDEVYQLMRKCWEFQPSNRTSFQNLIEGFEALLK

# Study 1 — technique: RNA Bind-n-Seq; form: RNA; matrix: in vitro; tested at: 1 µM; setting: whole 134-nt RNA, ends assumed; added: 150 mM KCl; relative to: input library; direction: higher = stronger binding
# Target: Ras GTPase-activating protein-binding protein 1, C-terminal RGG region (G3BP1, Homo sapiens, UniProt Q13283)
# Sequence of UniProt Q13283 (whole entry, looked up): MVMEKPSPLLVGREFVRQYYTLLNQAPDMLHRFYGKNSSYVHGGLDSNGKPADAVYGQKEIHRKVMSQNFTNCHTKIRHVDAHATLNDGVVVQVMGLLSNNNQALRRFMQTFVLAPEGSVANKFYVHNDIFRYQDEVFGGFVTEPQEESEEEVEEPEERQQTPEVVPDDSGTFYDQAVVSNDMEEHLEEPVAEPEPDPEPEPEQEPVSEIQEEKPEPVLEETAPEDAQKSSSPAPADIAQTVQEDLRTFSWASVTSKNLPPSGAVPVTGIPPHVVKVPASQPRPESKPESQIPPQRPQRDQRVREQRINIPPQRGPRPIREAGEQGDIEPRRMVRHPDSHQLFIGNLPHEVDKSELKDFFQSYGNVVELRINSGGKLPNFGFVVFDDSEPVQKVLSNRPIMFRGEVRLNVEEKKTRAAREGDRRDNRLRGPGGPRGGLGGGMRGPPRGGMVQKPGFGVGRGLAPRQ
# All sequences stand within: GGGAGUUCUACAGUCCGACGAUC … UGGAAUUCUCGGGUGUCAAGG
Oligonucleotide,log2 enrichment
CACAGACAACACGCACCCACACAGACACAGAGGGAAGUGGUUGGGAUGGGGACAGGGUGCACAGCAGGGCGGGGUAGGACCCCAGCCCCU,-0.423
UCAAGUCCUGUGCUACACAUCGUAUGUACCGAAUCGGGGUUGGGUUGGGGUUGGGAAAGUAUUAUGUUACGCCGUUCGGAUCUGCACUUC,2.08
CAAGUCCUGUGCUACACAUCGUAUGUACCGAAUCGGGUUUUUGGGAAAGGGAGGGAAAGUAUUAUGUUACGCCGUUCGGAUCUGCACUUC,1.52
CCUGUGCUACACAUCGUAUGUACCGAAUCGGGGCCCCCCGGGGCCCCCCGGCCCCCCGGGGAAAGUAUUAUGUUACGCCGUUCGGAUCUG,-2.05
AAGUCCUGUGCUACACAUCGUAUGUACCGAAUCGGGUGGGUUUGGGUUUUUUUGGGAAAGUAUUAUGUUACGCCGUUCGGAUCUGCACUU,0.587
UCCUGUGCUACACAUCGUAUGUACCGAAUCGGGGAAAAAGGGGUGGGGUUUUUUUGGGGAAAGUAUUAUGUUACGCCGUUCGGAUCUGCA,1.43
CUCAAGUCCUGUGCUACACAUCGUAUGUACCGAAUCGGGUGGGGUGGGGUGGGAAAGUAUUAUGUUACGCCGUUCGGAUCUGCACUUCCA,2.06
CAAGUCCUGUGCUACACAUCGUAUGUACCGAAUCGGGAAAAAGGGAAAGGGAGGGAAAGUAUUAUGUUACGCCGUUCGGAUCUGCACUUC,1.76

# Study 2 — target: CRIPT, C-terminal peptide; technique: DHFR complementation, deep sequencing; matrix: yeast; relative to: wild type; direction: higher = weaker binding
# Setting: single substitutions, model-inferred values
# Starting sequence: ERBIN, PDZ domain 1 (human); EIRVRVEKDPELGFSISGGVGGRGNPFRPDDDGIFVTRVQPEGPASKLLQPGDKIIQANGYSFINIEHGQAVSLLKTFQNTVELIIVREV; partner TKNYKQTSV
Change,binding free energy change
E42F,0.612 kJ/mol
L12Q,5.2 kJ/mol
D31C,1.29 kJ/mol
G60D,0.278 kJ/mol
Q79N,0.398 kJ/mol
I86F,0.281 kJ/mol
D30G,0.969 kJ/mol
G43A,2.37 kJ/mol

# Study 3 — technique: RNA Bind-n-Seq; form: RNA; matrix: in vitro; tested at: 20 nM; setting: 6-mer, flanks averaged, single round; added: 150 mM KCl; relative to: input library; direction: higher = stronger binding
# Target: TAR DNA-binding protein 43, full length, His tag (TARDBP, Homo sapiens, UniProt Q13148, residues 1-414)
Oligonucleotide,6-mer enrichment (R)
UGGUAU,0.853
CACAUG,0.716
GUGGUG,3.18
UUGGCC,0.773
CAACCG,0.683
GAGAGA,1.6
CGAACU,0.64
CGCUAC,0.642

# Further values, each from its own experiment
SMILES,target,observed,technique,tested at,endpoint,result
FC(F)(F)c1ccc2c(c1)nc(-c1cccnc1)n2C1CC1,"Tyrosine-protein kinase JAK1, JH1 (JAK1, Homo sapiens, UniProt P23458)",cell-free assay,competition with immobilised ligand,1 µM,remaining binding,100%

# For quick reference, copied from above (study 3):
Oligonucleotide,6-mer enrichment (R)
UUGGCC,0.773
CAACCG,0.683
